Published values gathered from unrelated publications.
Parts stem from different laboratories: compare values within a part only. Positions count from the first letter of the parent shown.

Study 1
Target: RING finger protein unkempt homolog, zinc fingers 1-6, GST-SBP tag (UNK, Homo sapiens, UniProt Q9C0B0, residues 30-357)
Technique: RNA Bind-n-Seq
Molecule type: RNA
Sample: in vitro
Tested at: not given
Notes: RNA with constant flanks, human and mouse sites, ends assumed
Relative to: input RNA pool
Reading: higher = stronger binding
Target sequence (chain): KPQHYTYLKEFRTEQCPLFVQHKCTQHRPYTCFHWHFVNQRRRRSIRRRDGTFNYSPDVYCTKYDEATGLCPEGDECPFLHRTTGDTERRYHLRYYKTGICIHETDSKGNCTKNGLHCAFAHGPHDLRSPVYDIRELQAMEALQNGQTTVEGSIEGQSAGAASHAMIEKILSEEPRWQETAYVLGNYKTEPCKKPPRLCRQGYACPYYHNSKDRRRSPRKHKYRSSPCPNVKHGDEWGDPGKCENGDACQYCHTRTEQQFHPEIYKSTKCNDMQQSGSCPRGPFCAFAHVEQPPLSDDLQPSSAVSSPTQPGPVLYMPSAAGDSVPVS
For `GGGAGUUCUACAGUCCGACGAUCAGUCAGUUUGUCCCAGCUGAUCAGAAUUUGCCUCAGAAGUUCCUAAGUGAUGCUGUUCAGGAUCUUUUUCCAGGACAAGCUAUAGAAAAAAAUGAGUUUUUAAGUCAUGACAACCAGAAACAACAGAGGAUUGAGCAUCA`, the bound/input enrichment was 0.7 ratio.
For `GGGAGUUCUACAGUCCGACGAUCACUGAAAAUAAAGAUAUUUACUGGAGAAACGUGAGAGAAAAGUUGUCAGUAGGAGAGAGCAUUAGUUUGGAUGAGUUCAAGUCCUUUUGCCAUUUUACAACGCAUUUGGAAGACUUUGCUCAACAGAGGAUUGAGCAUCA`, the bound/input enrichment was 0.683 ratio.
The bound/input enrichment of `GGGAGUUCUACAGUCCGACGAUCAGCAAUCCAGAUCUCUAUGGCCCCUUUUGGAUAUGUGCCACGUUGGUCUUUGCCAUAGCAAUUAGUGGGAAUCUUUCCAACUUCUUGAUCCAUCUGGGAGAGAAGACGUACCAUUAUGUGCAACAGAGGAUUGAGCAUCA` is reported as 0.155 ratio.
`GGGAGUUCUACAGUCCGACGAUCGGGAGCAUUGGUGAAAUAGAAUCCUGCAAACUCGUGAGAGACAAAAUCACAGGACAGAGUUUAGGGUAUGGAUUUGUUAACUAUAUUGAUCCAAAGGAUGCAGAGAAAGCCAUCAACACUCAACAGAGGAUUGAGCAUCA` has a bound/input enrichment of 0.112 ratio.
For `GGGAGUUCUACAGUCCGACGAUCGUGGCAGACGCUGUCACUUACCAGCUUGGUUUCCACAGUAUUGAACUGAACGAGCCUCCACUAGUCCACACAGCCGCCAGUCUCUUUAAGGAGAUGUGUUACCGGUACAGAGAAGAUCUGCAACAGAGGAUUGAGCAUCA`, the bound/input enrichment was 0.714 ratio.
`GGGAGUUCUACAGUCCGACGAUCUUGAAAGUGUUAUAUCAGUACAAGGAAAAACAAUAUAUGGCGCCUCGAGUUUUACAGCAGACAUUAAAUUAUAUUAAUCAAGGAGUUUCCCAUGCACUUACGUGGAAGAACCUGAAGCCCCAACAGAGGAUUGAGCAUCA` has a bound/input enrichment of 0.478 ratio.
For `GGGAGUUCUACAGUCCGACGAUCAAAGGUGGACUGAAACCCCUGAUUCCUACCUUGGAAAAAAACAAAAGCAGCAGCAGAGGCAUCCAGACCCUGCUUGAGAAGCUGACUGCGUAGGCAGCAGGAUGAGCAAGCGGGAACCCGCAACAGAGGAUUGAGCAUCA`, the bound/input enrichment was 0.217 ratio.
The bound/input enrichment of `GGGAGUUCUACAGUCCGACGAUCCUCCCUGAAGUGACGGAUGAGUAUAAGAAUGAUGUAAAAAACAGAUCUGUUUAUAUUAAAGGUUUCCCAACUGACGCCACCCUUGAUGAUAUAAAAGAAUGGCUAGACGAUAAAGGCCAACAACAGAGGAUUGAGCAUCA` is reported as 0.478 ratio.
With `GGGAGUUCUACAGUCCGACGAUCGCCAAGGCCAUCCAGCUGAACAGCAACAGCGUCCAGGCUCUGUUACUCAAGGGGGCGGCGCUUAGGAACAUGGGGAGGGUCCAGGAAGCCAUCAUACACUUUCGGGAGGCCAUCAGGCUUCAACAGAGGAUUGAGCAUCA` the bound/input enrichment was 0.0634 ratio.
With `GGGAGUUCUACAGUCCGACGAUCGAGACGGUGGAGGAAGAGAAGAGCCAGUCAGAUGUGGAUUUUCAGUCGUGCGAGUCUUGUAGCAGCAGCGAGAAAGCAGAAAAUGAGAGUGGCUCCAAAGGCUUUCCUGAGGACAGCAAUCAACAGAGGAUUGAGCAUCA` the bound/input enrichment was 0.31 ratio.
For `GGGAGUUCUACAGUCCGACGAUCAUAUCUACAUGCUGUCAGUGAGGCUCCAGGAGGCUUUCCUAACCCUGGGAAGUUAUUUGGGCAUAGCGCUCUAUGUUUAAUAAAGGUUUUUUAAUAGAUGUUUUAUUCAGUACAUCUUCCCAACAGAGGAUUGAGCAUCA`, the bound/input enrichment was 1.28 ratio.

Study 2
Molecule: PhoQ, residues 284 288 289 292 302 303 SVTLVV
Technique: Sort-seq
Measured: YFP reporter
Sample: E. coli
Notes: PhoQ-PhoP variant library
Added: 10 µM Mg2+
Relative to: high Mg2+ state
Reading: higher = stronger signaling
PhoP, residues 12 14 15 18 19 NYFRM (Escherichia coli, UniProt P23836) — fold induction: 6.6.
For PhoP, residues 12 14 15 18 19 QYFSL (Escherichia coli, UniProt P23836): fold induction read 3.35.
The fold induction was 21.5 (PhoP, residues 12 14 15 18 19 TQALL (Escherichia coli, UniProt P23836)).

Study 3
Target: Histone acetyltransferase KAT6A, winged helix 1, GST fusion (KAT6A, Homo sapiens, UniProt Q92794, residues 1-85)
Technique: protein binding microarray
Molecule type: double-stranded DNA, one strand shown
Sample: in vitro
Tested at: not given
Notes: 8-mer, flanks averaged, mean of 2 arrays, mostly near background
Relative to: not given
Reading: higher = stronger binding
Residues (chain): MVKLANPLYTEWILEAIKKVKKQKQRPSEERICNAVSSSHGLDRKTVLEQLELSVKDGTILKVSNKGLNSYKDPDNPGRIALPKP
`CCGAGGCA` has an E-score of 0.00822.
The E-score of `GAGTCTCA` is reported as -0.0887.
`ACTCTTAG` has an E-score of -0.168.
With `CTCAGCAC` the E-score was -0.143.
With `GTAAATAA` the E-score was -0.1.
The E-score of `ACTCTAAT` is reported as -0.148.
`GCAGCCCC` gave an E-score of -0.00698.
With `TCGCCAAA` the E-score was -0.096.
`CCAGATTA` gave an E-score of -0.0951.
`GGAGGTTA` has an E-score of 0.0132.
`GTGCTTGA` has an E-score of -0.214.

Study 4
Target: CCNB3, cyclin fold, Cln2 fusion (human)
Technique: yeast growth competition, sequencing
Sample: yeast
Notes: strong parent motif
Relative to: not given
Reading: higher = stronger binding
Parent: BRCA2 docking peptide (human); PSIKRNLLNEFDR
Under “normalised enrichment score”, `K4S` is recorded as 0.384.
Under “normalised enrichment score”, `R5C` is recorded as 0.412.
`I3K`: “normalised enrichment score” 0.463.
`R13C`: “normalised enrichment score” 0.831.
`L7K`: “normalised enrichment score” -0.182.

Excerpt of the above (study 2):
PhoP, residues 12 14 15 18 19 NYFRM (Escherichia coli, UniProt P23836) — fold induction: 6.6.
For PhoP, residues 12 14 15 18 19 QYFSL (Escherichia coli, UniProt P23836): fold induction read 3.35.
